Assay results of several laboratories.
Each numbered part is a random draw from the data of one study; scales do not carry over between parts.

Sample 1
Target: Histone acetyltransferase KAT6A, winged helix 1, GST fusion (KAT6A, Homo sapiens, UniProt Q92794, residues 1-85)
Method: protein binding microarray
Molecule type: double-stranded DNA, one strand shown
Matrix: in vitro
Concentration: not given
Setting: 8-mer, flanks averaged, mean of 2 arrays, mostly near background
Baseline: not given
Reading: higher = stronger binding
Construct (chain): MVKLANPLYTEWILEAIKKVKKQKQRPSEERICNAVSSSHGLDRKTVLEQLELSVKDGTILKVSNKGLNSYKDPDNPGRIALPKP
With `CGTCCAAA` the E-score was 0.0437.
`TGCCTCCA` has an E-score of -0.0562.
With `TATAGGGA` the E-score was -0.0521.
`AGATATCC` has an E-score of -0.0258.
With `GACCGGTC` the E-score was 0.204.

Sample 2
Target: Max-binding protein MNT, bHLH-zipper, MAX partner unstated (MNT, Homo sapiens, UniProt Q99583, residues 220-300)
Method: protein-binding microarray
Molecule type: double-stranded DNA, one strand shown
Matrix: in vitro
Concentration: not given
Setting: k-mer, scored over probes, only values ≥0.25
Reading: higher = stronger binding
Construct (chain): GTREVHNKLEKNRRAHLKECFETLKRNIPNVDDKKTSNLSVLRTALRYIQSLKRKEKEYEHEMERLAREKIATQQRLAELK
With `AAAGCGTG` the E-score was 0.404.
With `ACGTTGTC` the E-score was 0.372.
The E-score of `AGGGCACG` is reported as 0.32.

Sample 3
Target: Sal-like protein 4, full length isoform A (SALL4, Homo sapiens, UniProt Q9UJQ4, residues 1-1053)
Sequence of UniProt Q9UJQ4 (whole entry, looked up): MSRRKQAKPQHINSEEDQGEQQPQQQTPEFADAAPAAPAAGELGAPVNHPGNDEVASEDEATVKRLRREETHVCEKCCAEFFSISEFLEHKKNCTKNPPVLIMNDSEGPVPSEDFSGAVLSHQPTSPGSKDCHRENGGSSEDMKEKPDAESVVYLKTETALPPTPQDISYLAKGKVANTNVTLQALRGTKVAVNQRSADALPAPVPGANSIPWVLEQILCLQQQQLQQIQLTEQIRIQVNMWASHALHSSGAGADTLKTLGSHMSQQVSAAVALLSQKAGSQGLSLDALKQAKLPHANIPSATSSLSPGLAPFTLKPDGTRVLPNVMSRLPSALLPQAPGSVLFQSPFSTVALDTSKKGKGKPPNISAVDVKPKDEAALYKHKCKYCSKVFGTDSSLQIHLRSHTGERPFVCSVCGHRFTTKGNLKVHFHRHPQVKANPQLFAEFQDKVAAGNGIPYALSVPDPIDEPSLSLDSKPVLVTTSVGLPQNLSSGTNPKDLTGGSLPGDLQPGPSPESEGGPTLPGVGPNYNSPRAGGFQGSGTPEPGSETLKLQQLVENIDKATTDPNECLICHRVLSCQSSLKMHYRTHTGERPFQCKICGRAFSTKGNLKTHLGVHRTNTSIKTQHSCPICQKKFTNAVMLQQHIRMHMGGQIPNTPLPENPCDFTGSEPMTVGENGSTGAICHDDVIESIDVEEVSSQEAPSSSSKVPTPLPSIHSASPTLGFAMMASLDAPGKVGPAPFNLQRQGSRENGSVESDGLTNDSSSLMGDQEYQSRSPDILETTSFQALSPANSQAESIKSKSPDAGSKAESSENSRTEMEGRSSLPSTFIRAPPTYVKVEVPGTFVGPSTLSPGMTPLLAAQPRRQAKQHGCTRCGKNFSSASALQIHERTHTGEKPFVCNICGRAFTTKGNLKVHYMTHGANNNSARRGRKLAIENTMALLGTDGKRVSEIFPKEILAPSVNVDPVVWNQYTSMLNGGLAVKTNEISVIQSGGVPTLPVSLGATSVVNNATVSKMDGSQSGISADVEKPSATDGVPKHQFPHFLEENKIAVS
Method: universal PBM
Molecule type: double-stranded DNA, one strand shown
Matrix: in vitro
Concentration: 600 nM
Setting: 8-mer, flanks averaged, mean of replicates
Reading: higher = stronger binding
For `TCATTCAA`, the E-score was 0.198.
With `TACCACCA` the E-score was -0.016.
The E-score of `GGAGGTAA` is reported as 0.0125.
With `CGGGTTTA` the E-score was -0.0116.

Mixed results
`PhoQ, residues 284 288 289 292 302 303 AGCYAI` gave a fold induction of 4.3 (PhoP, residues 12 14 15 18 19 NYFRM (Escherichia coli, UniProt P23836); Sort-seq, item: YFP reporter; E. coli; PhoQ-PhoP variant library, together with: 10 µM Mg2+; baseline: high Mg2+ state, higher = stronger signaling).
